# Experimental data of several laboratories.
# Lines come from different studies, so protocols differ. Values joined by “and” are separate records of one study, mostly repeats; a detail may differ. ± marks the error that the study gave.
Structure (SMILES),test,test system,conditions,scale,measurement,value
COc1ccc2c(c1)CN(C(=O)CCN1CCC(Cc3ccccc3)CC1)CC[S@@+]2[O-],telemetry,conscious male beagle dogs,"intravenous, 2 mg/kg, 4 h",,QTc interval,231 ± 11 ms
CNc1ccc(-c2nc3ccc(O)cc3s2)cc1 [carbon-11 labelled],ex vivo biodistribution,"APP/PS1 mouse, AD model, eyes","intravenous, 30 min",,SUV,0.574 ± 0.258
CC1(CNC(=O)c2ccc(-c3ccc(Br)cc3)cc2)NC(=O)NC1=O (stereo not drawn),,aqueous buffer,pH 7.4,,thermodynamic solubility,< 7.14 µM
CCn1cc(C(=O)N2CCOCC2)c(=O)c2cc(NC3Cc4ccccc4C3)cnc21,,"human, fed","oral suspension, 1200 mg/day twice daily, day 8, arithmetic mean",,half-life,5.4 h
C1=C/COCc2cc(ccc2OCCN2CCCC2)Nc2nccc(n2)-c2cccc(c2)COC/1,,rat plasma,"600 ng/mL, 24 h, 4 °C",relative to: nominal concentration,stability relative error,6.15%
N#Cc1ccc2c(c1)[C@H]1CCCN(C(=O)c3ccc4[nH]cnc4c3)[C@H]1C2,,"human, female","80 mg, day 7",,androstenedione level,9.1 nmol/L
O=C(O)CCC(=O)O.[2H]C([2H])([2H])Oc1cc(C)c2[nH]ccc2c1CN1CC[C@@H](C2CC2)C[C@H]1c1ccc(C(=O)O)cc1,multiple ascending dose,healthy Chinese subjects,50 mg twice daily,,subjects with dental ulcer TEAE,0%
Cn1cc(Nc2nccc(-c3ccc4c(c3)CN(C3COC3)CC[C@H]4NC(=O)c3cn(C(C)(C)C)nn3)n2)cn1,,"human, whole blood","300 mg twice daily, day 14",relative to: pre-dose baseline,CD4+ T cell count change,-5.15%
N#C[C@@]1(c2ccc3c(N)ncnn23)O[C@H](CO)[C@@H](O)[C@H]1O,plasma protein binding,monkey plasma,"100 µM, time not given",,recovery,97.1%
Cc1cc(-c2nccc3c2ccn3CC(=O)Nc2ccc(-c3cnccn3)cn2)ccn1,,human,"SAD part, single 20 mg dose",,subjects with any grade 2 TEAE,0%
CCOc1c([C@H](C)n2nc(C)c3c(N)ncnc32)cc(Cl)c(F)c1[C@@H]1CNC(=O)C1,,"patients, monotherapy","oral, 5 mg once daily, cycle 1 day 15",,Tmax median,0.5 h
C=CCN1CC(=O)N2[C@@H](Cc3ccc(O)cc3F)C(=O)N(Cc3cccc(N4CC(N5CCN(CC)CC5)C4)n3)C[C@@H]2N1C(=O)NCc1ccccc1,,advanced solid tumour patients,"oral, 10 mg twice daily, grade ≥3, dose-escalation",,treatment-related nausea,0%
COc1cc2[nH]c(C)c(-c3cc4ccccc4s3)c(=O)c2cc1Cl,,,pH 7.4,,kinetic solubility,< 2 µM
CC(F)(F)c1nc2nc(CO)cc(Nc3ccc(S(F)(F)(F)(F)F)cc3)n2n1,LC-MS/MS,"malaria patients, plasma","oral, 600 mg of parent drug",,"AUC(0-t), metabolite",148000 ng·h/mL
CNC(=O)c1cc(Oc2ccc(NC(=O)Nc3cc(C(C)(C)C)nn3-c3ccc4ncccc4c3)c(F)c2)ccn1,,patients,"oral, dose not given, cycles 1 and 2, Medium AUC subgroup",,patients with grade 1 cardiac disorders,7%
CNCc1ccc(-c2[nH]c3cc(F)cc4c3c2CCNC4=O)cc1,,human patients,"oral, 600 mg twice daily, grade 3",,incidence of decreased appetite,0%
COc1ccnc(C(=O)N[C@@H](CO)C(=O)O[C@@H](C)[C@H](O)[C@@H](Cc2ccccc2)C(=O)O)c1O,,bovine muscle,-18 °C,,storage stability,3 months
Cc1ccc([C@@H]2O[C@H](CO)[C@@H](O)[C@H](O)[C@H]2O)cc1Cc1ccc(-c2ccc(F)cc2)s1,,Japanese type 2 diabetes patients,"200 mg, day 17, 24 h urine collection",relative to: baseline,urinary chloride excretion change,-20.2 mEq
CO[C@H]1C[C@@H]2CC[C@@H](C)[C@@](O)(O2)C(=O)C(=O)N2CCCC[C@H]2C(=O)O[C@H]([C@H](C)C[C@@H]2CC[C@@H](OC(=O)NCCOCCOCCOCCOCCOCCOCCOCCOCCC(=O)N3CCc4cc(Cn5nc(-c6ccc7oc(N)nc7c6)c6c(N)ncnc65)ccc4C3)[C@H](OC)C2)C[C@@H](O)[C@H](C)/C=C(\C)[C@@H](O)[C@@H](OC)C(=O)[C@H](C)C[C@H](C)/C=C/C=C/C=C/1C,,"human, plasma","intravenous, 6 mg, cycle 1",relative to: day 15 over day 1,AUClast ratio,1.9
CNC(=O)c1ccc(-c2cnc3ncc(Cc4ccc5ncccc5c4)n3n2)cc1F,measured: Vomiting,hepatocellular carcinoma patients,"oral, 600 mg twice daily, expansion cohort, grade 3-4",,patients with adverse event,9%
c1ccc(-c2nc(NCCn3ccnc3)c3ccccc3n2)nc1,,Japanese Pharmacopoeia disintegration test solution 2,pH 6.8,,kinetic solubility,81 µg/mL
Cc1cccc(NS(=O)(=O)c2cc(C(=O)Nc3ccccc3C(=O)N3CCOCC3)ccc2Cl)c1,,aqueous buffer,pH 7.4,,thermodynamic solubility,< 7.14 µM
FC(F)(F)c1ccc(CNc2ccc(Cc3c[nH]c4ncc(Cl)cc34)cn2)cn1,measured: Hypophosphatemia,"patients with advanced solid tumours, non-TGCT cohort","oral, 1000 mg/day, grade 3 or higher",,treatment-related adverse events,4%
CCCCOC(=O)N1CCN(C(=O)[C@H](CP(=O)(O)O)NC(=O)c2cc(N3CC[C@H](OC)C3)nc(-c3ccccc3)n2)CC1,,human,"subcutaneous, 8 mg, 1 h post-dose",relative to: baseline,change in PR interval,1 ± 13.2 ms
O=C(COc1ccc(Cl)cc1)NC12CC(c3nnc([C@H]4C[C@@H](OC(F)(F)F)C4)o3)(C1)C2,postural dizziness,"human, both sexes","oral, dose not given, single ascending dose, fasted, all doses",relative to: subjects,treatment-emergent adverse events,19.4%
O=C(OC(C(F)(F)F)C(F)(F)F)N1CCN(Cc2cccc(Oc3ccccc3)c2)CC1,PET blocking study,"rhesus monkey, brain OCC","0.01 mg/kg, compound pretreatment, together with: [18F]T-401 tracer",,Ktrans,0.0013 min⁻¹
Cc1cc(Nc2ncnc3ccc(NC4=NC(C)(CO)CO4)cc23)ccc1Oc1ccn2ncnc2c1 (stereo not drawn),,"healthy volunteers, plasma","oral, 300 mg tucatinib, day 1",,"%AUCextrap, median",4.12%
CCCOc1ccc(NC(=O)CN2CCN(C)CC2)cc1-c1nc(CC)c(CC)c(=O)[nH]1,,healthy Chinese men,"10 mg, together with: alcohol 0.5 g/kg",relative to: compound with placebo alcohol,AUEC(0-4 h) diastolic BP difference,-8.25 h·mmHg
CCN1/C(=C/C(C)=O)Sc2ccc(F)cc21,,cynomolgus monkey,"oral, 10 mg/kg, 0.5 h post-dose",,QTc interval (Bazett),324 ± 20 ms
CCCCOc1ccc([C@H]2CC[C@H](CCC)CC2)c(F)c1F,,"rat, fetus","5000 ng/mL in perfusate, high dose, mixture of 21 LCMs",,median fetal accumulation,1.26 ng/g
NC(=O)c1cnc2[nH]ccc2c1N[C@@H]1[C@@H]2CC3C[C@H]1C[C@@](O)(C3)C2,,"healthy human volunteers, plasma","oral, population PK model estimate",,intercompartmental clearance,9.19 L/h
CN(CCCN1CCN(C(=O)CN2CCN(CC(=O)[O-])CCN(CC(=O)[O-])CCN(CC(=O)[O-])CC2)CC1)c1ccc2nccc(C(=O)NCC(=O)N3CC(F)(F)C[C@H]3C#N)c2c1.[68Ga+3],,"mice, HT-1080.hFAP and HT-1080 wild-type xenografts, muscle","iv, 500 pmol, 4 h post injection",,uptake,0.1 ± 0.1 %IA/g
CCN1CCN(Cc2ccc(NC(=O)c3ccc(C)c(NC(=O)c4cncc(-c5cccs5)c4)c3)cc2C(F)(F)F)CC1,,"C57BL/6 mice, epithelial lining fluid","intraperitoneal, 30 mg/kg",,extrapolated AUC share,8.4%
CCO[C@H]1CCN(Cc2c(OC)cc(C)c3[nH]ccc23)[C@H](c2ccc(C(=O)O)cc2)C1,,"human mild hepatic impairment, plasma","oral, 200 mg single dose, geometric mean",,total AUC(0-inf),52200 ng·h/mL
CN1C(=O)[C@@H](NC(=O)c2nnc(Cc3ccccc3)[nH]2)COc2cccnc21,phase I single ascending dose,"human, male and female","oral, 10 mg, fasted",,medical device site reaction incidence,16.7%
O=C(O)CSc1nnc(Br)n1-c1ccc(C2CC2)c2ccccc12,,"KM mouse, chronic hyperuricaemia model","dose not given, day 7",,body weight,29.3 g and 24.6 g and 31.7 g and 29.2 g and 28.9 g and 23.9 g
CCc1cc(C(=O)NC)c2nccc(N3CCc4c(cc(Cn5ccnc5)cc4-c4cn(C)nc4C(F)(F)F)C3=O)c2c1,,Sprague Dawley rat,"oral, 50 mg/kg once daily, day 6, 7-day toxicology study",,body weight,258 ± 8.8 g
Cc1c(C(=O)O)ccc2c3n(nc12)[C@@H]1[C@H](C3)N(CC2CC2)[C@@]2(C(=O)Nc3cc(Cl)ccc32)[C@H]1c1cccc(Cl)c1F,,"female BALB/c nude mice, plasma","oral, 2 mg/kg once daily, 4 h, SJSA-1 tumour-bearing",,plasma concentration,1710 nM and 2030 nM and 1910 nM and 1580 nM
Cn1cc([C@H]2C[C@H]3CSC(N)=N[C@@]3(c3ccc(F)cc3F)CO2)cn1,,"male 129/SVE mouse, plasma","subcutaneous, 10 mg/kg, 1 h",,plasma concentration,1620 nM
CN(C(=O)n1cnc(-c2cccnc2)c1)[C@H]1CC[C@H](O)CC1,,"rat, hippocampus","oral, 10 mg/kg daily for 5 days, 48 h",,tissue concentration,14.8 ± 1.4 ng/g
NC(CO)(CO)CCc1ccc(Sc2cccc(OCc3ccccc3)c2)cc1Cl,population PK model,"human, blood","oral, 3 mg, cyclosporin covariate on CL",,clearance typical value,372 mL/min
COCCOc1cnc2ccn([C@H](C)c3nnc4c(F)cc(-c5cnn(C)c5)cn34)c(=O)c2c1,,"patients, plasma","oral, 150 mg twice daily, day 1 predose, 300 per day",,Ctrough,1320 ng/mL
Cc1nc2cccc(OCC(C)(C)C(=O)NC(C)C)c2c(N)c1C(=O)O,,Swiss albino CD-1 mouse,"oral, 1000 mg/kg, 48 h",,mean body weight change,1.5 ± 1 g
CN[C@@H](C)C(=O)N[C@H]1CN(C(=O)CC(C)C)CC[C@H]2CC[C@@H](C(=O)NC(c3ccccc3)c3ccccc3)N2C1=O,,"SCID mouse, urine","oral, dose not given",relative to: absorbed amount,unchanged drug in urine,~15%
CCn1c2ccc(CNCCOCCOCCOCCC(=O)NCCOc3ccc(CCc4nc5cc(-c6c(C)noc6C)ccc5n4CCN4CCOCC4)cc3F)cc2c2ccc(-c3cc(C)cs3)cc21,,Swiss albino mouse,"intraperitoneal, 50 mg/kg, single dose",,toxicity,not toxic
COc1ncc(-c2nc3c(n2C(C)C)[C@H](c2ccc(Cl)cc2)N(c2cc(Cl)cn(C)c2=O)C3=O)c(OC)n1,,"human patients, plasma","oral, 45 mg, 0-24 h, low-dose arm, cycle 1 day 1",,AUC(0-t) geometric mean,5230 ng·h/mL
COc1cccc(-c2n[nH]c(SCc3ccccn3)n2)c1OC,,"Sprague-Dawley rats, both sexes","oral dietary, 10 mg/kg/day, day 90, 0 h",,plasma concentration,264 ng/mL
C[C@@H](Nc1cc(F)cc(F)c1)c1cc(C(=O)N(C)C)cc2c(=O)cc(N3CCOCC3)oc12,measured: Colitis,advanced solid tumour patients,"oral, dose not given, dose expansion",,patients discontinuing for AE,0%
NS(=O)(=O)c1ccc(CNc2nc(Nc3cccc(CN4CCOCC4)c3)ncc2Br)cc1,PAMPA,PBS,"5 h, pH 7.4",,PAMPA permeability,not detected
Cc1ccc(N(C)C(=O)/C=C/c2ccco2)cc1,hot plate test,mice,"oral, 30 mg/kg single, 0 min",,licking latency,14.7 ± 0.4 s
O=C(Nc1nc2cccc(-c3ccc(CN4CCS(=O)(=O)CC4)cc3)n2n1)C1CC1,measured: general and administration-site disorders,rheumatoid arthritis patients,"oral, 150 mg once daily, 4 weeks, any relatedness",,treatment-emergent adverse events,6.7%
Cc1ccc(Sc2ccccc2N2CCNCC2)c(C)c1,measured: Diarrhea,healthy adult men,"oral, 5 mg daily, 12 days",,participants with TEAE,0%
COC(=O)c1ccccc1-c1c2ccc(=N)cc-2oc2c1ccc1cccc(O)c12.Cl,,12.5 mM aqueous NaOH,"pH 12.1, 10% DMSO",,molar extinction coefficient,15600 M⁻¹ cm⁻¹
O=c1oc2c(O)c(O)cc3c(=O)oc4c(O)c(O)cc1c4c23,,"rat, plasma","oral, 500 mg/kg extract, extract",,MRT,4.83 ± 0.3 h
CCCOc1ccc(-c2ccc(C#N)cc2)cc1,,"Sprague-Dawley rat, female, placenta","5000 ng/mL in perfusate, 50 (unit not given), high dose, mixture of 21 LCMs",,median placental accumulation,449 ng/g
CCc1c(-c2ccccc2)c(-c2ccccc2)nn1-c1ccccc1-c1cccc(OCC(=O)O)c1,,"female Sprague-Dawley rat, uterus","oral, 10 mg/kg, 1 h",,concentration,1180 ng/g
Cc1cccc(CNC(=O)c2cn(CCNC(=O)c3ccccc3S)c3cc4c(cc3c2=O)OC(F)(F)O4)n1,,"Sprague-Dawley rat, male, plasma","intramuscular, 3 mg/kg of parent drug",,Cmax,9.41 ± 1.96 ng/mL

# For quick reference, copied from above:
Structure (SMILES),test,test system,conditions,scale,measurement,value
CC(F)(F)c1nc2nc(CO)cc(Nc3ccc(S(F)(F)(F)(F)F)cc3)n2n1,LC-MS/MS,"malaria patients, plasma","oral, 600 mg of parent drug",,"AUC(0-t), metabolite",148000 ng·h/mL
CNCc1ccc(-c2[nH]c3cc(F)cc4c3c2CCNC4=O)cc1,,human patients,"oral, 600 mg twice daily, grade 3",,incidence of decreased appetite,0%
NC(=O)c1cnc2[nH]ccc2c1N[C@@H]1[C@@H]2CC3C[C@H]1C[C@@](O)(C3)C2,,"healthy human volunteers, plasma","oral, population PK model estimate",,intercompartmental clearance,9.19 L/h
CCc1cc(C(=O)NC)c2nccc(N3CCc4c(cc(Cn5ccnc5)cc4-c4cn(C)nc4C(F)(F)F)C3=O)c2c1,,Sprague Dawley rat,"oral, 50 mg/kg once daily, day 6, 7-day toxicology study",,body weight,258 ± 8.8 g
O=C(O)CSc1nnc(Br)n1-c1ccc(C2CC2)c2ccccc12,,"KM mouse, chronic hyperuricaemia model","dose not given, day 7",,body weight,29.3 g and 24.6 g and 31.7 g and 29.2 g and 28.9 g and 23.9 g
N#C[C@@]1(c2ccc3c(N)ncnn23)O[C@H](CO)[C@@H](O)[C@H]1O,plasma protein binding,monkey plasma,"100 µM, time not given",,recovery,97.1%
CCN1/C(=C/C(C)=O)Sc2ccc(F)cc21,,cynomolgus monkey,"oral, 10 mg/kg, 0.5 h post-dose",,QTc interval (Bazett),324 ± 20 ms
CNc1ccc(-c2nc3ccc(O)cc3s2)cc1 [carbon-11 labelled],ex vivo biodistribution,"APP/PS1 mouse, AD model, eyes","intravenous, 30 min",,SUV,0.574 ± 0.258
